Assay results gathered from unrelated publications.
Lines come from different studies, so protocols differ. In brackets after ≈: the same amount, converted by molar mass.
Organism: Mycobacteroides abscessus

SMILES	assay	test system	conditions	how to read	quantity	result
CCc1nc(N)nc(N)c1OCCCOc1ccccc1CCC(=O)O	resazurin microtiter	ATCC 19977			MIC	10.1 µg/mL
O=C(CO/N=c1\cc2n(-c3ccc(Cl)cc3)c3ccccc3nc-2cc1Nc1ccc(Cl)cc1)NCc1ccc2c(c1)CCO2	bacterial growth	ATCC 19977			MIC	> 30 µM
Nc1nc(N)c(OCCCOc2ccccc2CCC(=O)O)c(CCCCO)n1	resazurin microtiter	ATCC 19977			MIC	76.7 µg/mL
C[C@H](NC(=O)CO/N=c1\cc2n(-c3ccc(Cl)cc3)c3ccccc3nc-2cc1Nc1ccc(Cl)cc1)C(=O)OC(C)(C)C	bacterial growth	clinical isolate			MIC	> 30 µM
O=C(CNc1ccc(Br)cc1)NC1C2CC3CC(C2)CC1C3 (stereo not shown)					potency fold over aniline analogue	16 fold
Clc1ccc(Nc2cc3nc4ccccc4n(-c4ccc(Cl)cc4)c-3c/c2=N\OCc2ccccc2)cc1	bacterial growth	clinical isolate			MIC	> 30 µM
CO[C@H]1/C=C/O[C@@]2(C)Oc3c(C)c(O)c4c(c3C2=O)C2=NC3(CCN(CC(C)C)CC3)NC2=C(NC(=O)/C(C)=C\C=C\[C@H](C)[C@H](O)[C@@H](C)[C@@H](O)[C@@H](C)[C@H](OC(C)=O)[C@@H]1C)C4=O	bacterial growth	subsp. abscessus clinical isolate	slow grower		IC90	3.18 µM
O=C(CNc1ccc(OC(F)(F)F)cc1)NC12CC3CC(CC(C3)C1)C2					potency fold over aniline analogue	8 fold
CC[C@H]1OC(=O)[C@H](C)[C@@H](O[C@H]2C[C@@](C)(OC)[C@@H](O)[C@H](C)O2)[C@H](C)[C@@H](O[C@@H]2O[C@H](C)C[C@H](N(C)C)[C@H]2O)[C@](C)(OC)C[C@@H](C)C(=O)[C@H](C)[C@@H](O)[C@]1(C)O		ATCC 19977, caseum surrogate	5 d, non-replicating		MBC	100 µM (≈ 74.8 µg/mL)
CCCCCCC#Cc1cncc(-c2nnc(SCc3ccc(Cl)cc3)n2C)c1				no activity below value	MIC	≥ 200 µM

Repeated from above:
SMILES	assay	test system	conditions	how to read	quantity	result
O=C(CNc1ccc(Br)cc1)NC1C2CC3CC(C2)CC1C3 (stereo not shown)					potency fold over aniline analogue	16 fold
